Experimental data of several laboratories.
Parts stem from different laboratories: compare values within a part only.
Chain of UniProt P42336 (whole entry, unmodified, looked up): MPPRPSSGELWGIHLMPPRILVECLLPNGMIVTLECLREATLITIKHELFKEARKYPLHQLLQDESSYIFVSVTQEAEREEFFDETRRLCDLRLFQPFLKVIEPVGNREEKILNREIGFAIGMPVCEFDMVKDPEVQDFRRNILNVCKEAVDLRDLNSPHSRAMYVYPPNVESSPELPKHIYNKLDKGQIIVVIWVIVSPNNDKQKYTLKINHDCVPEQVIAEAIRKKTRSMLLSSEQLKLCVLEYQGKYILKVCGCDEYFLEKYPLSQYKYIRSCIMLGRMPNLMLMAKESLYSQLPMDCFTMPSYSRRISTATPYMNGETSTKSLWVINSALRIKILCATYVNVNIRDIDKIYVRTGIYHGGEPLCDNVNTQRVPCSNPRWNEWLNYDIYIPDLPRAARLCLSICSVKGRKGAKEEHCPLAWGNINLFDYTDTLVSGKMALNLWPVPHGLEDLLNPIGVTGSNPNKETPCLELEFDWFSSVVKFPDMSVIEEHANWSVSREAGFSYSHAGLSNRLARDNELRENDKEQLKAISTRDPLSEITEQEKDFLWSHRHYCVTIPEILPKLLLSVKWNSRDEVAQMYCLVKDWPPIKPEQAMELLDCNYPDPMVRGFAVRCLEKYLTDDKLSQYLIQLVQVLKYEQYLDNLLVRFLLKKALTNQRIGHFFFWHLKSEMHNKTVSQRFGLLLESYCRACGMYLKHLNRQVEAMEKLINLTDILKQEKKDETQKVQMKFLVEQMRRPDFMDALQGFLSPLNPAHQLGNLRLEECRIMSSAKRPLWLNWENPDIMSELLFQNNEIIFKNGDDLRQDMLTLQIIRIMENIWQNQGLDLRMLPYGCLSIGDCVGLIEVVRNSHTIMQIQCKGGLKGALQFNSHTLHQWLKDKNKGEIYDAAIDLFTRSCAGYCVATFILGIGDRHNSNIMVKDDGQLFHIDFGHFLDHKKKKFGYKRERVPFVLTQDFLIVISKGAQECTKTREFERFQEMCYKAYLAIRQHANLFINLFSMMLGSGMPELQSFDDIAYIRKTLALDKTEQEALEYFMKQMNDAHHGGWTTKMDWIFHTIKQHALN
Chain of UniProt Q13164 (whole entry, looked up): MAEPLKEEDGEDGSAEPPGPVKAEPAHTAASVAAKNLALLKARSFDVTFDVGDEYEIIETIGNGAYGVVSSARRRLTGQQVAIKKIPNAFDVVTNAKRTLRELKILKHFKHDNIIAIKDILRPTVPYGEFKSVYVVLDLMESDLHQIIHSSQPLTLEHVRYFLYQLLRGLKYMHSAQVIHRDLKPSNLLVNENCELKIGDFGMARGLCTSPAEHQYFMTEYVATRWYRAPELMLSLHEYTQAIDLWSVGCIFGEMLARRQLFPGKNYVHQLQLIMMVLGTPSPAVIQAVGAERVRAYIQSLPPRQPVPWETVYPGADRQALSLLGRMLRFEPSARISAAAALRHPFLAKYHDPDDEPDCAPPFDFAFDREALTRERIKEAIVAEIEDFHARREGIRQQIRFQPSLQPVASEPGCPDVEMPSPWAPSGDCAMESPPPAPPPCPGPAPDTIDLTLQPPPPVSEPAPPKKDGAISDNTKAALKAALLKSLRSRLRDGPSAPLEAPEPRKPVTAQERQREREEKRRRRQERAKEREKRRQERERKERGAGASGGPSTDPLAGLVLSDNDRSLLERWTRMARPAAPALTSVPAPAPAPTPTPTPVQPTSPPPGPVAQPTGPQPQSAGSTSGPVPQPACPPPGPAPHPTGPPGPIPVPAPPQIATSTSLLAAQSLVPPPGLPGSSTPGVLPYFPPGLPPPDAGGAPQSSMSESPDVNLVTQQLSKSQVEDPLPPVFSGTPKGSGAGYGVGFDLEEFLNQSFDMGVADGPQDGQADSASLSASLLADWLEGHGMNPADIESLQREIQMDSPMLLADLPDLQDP
Chain of UniProt Q8NI60 (whole entry, looked up): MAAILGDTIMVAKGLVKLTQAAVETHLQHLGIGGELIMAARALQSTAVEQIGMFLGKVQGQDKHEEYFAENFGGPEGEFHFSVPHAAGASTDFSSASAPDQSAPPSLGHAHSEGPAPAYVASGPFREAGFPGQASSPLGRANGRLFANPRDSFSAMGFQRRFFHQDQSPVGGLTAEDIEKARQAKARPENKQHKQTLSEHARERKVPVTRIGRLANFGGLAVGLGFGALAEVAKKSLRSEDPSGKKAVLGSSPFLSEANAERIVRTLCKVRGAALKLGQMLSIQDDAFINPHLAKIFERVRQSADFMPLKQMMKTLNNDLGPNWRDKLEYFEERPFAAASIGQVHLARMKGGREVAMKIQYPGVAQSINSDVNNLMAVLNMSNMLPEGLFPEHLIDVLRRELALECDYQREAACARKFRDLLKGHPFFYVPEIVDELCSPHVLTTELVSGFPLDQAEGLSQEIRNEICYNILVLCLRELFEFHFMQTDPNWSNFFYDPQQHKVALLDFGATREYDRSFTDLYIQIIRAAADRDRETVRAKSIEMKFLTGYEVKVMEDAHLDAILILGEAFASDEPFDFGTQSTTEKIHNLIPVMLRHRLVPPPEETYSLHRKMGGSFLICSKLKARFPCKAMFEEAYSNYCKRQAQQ
Chain of UniProt P78368 (whole entry, looked up): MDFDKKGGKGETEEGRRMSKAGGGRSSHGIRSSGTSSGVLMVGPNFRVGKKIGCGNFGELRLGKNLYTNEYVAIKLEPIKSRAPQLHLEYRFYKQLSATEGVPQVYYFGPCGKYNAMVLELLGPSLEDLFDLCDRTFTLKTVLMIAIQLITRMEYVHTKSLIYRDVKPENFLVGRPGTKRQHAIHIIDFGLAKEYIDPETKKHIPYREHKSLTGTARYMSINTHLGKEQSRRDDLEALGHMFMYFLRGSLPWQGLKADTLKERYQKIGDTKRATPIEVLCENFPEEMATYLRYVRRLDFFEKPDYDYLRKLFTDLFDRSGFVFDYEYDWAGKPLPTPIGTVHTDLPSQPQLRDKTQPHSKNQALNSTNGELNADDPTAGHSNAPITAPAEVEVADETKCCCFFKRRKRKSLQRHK
Chain of UniProt P11802 (whole entry, looked up): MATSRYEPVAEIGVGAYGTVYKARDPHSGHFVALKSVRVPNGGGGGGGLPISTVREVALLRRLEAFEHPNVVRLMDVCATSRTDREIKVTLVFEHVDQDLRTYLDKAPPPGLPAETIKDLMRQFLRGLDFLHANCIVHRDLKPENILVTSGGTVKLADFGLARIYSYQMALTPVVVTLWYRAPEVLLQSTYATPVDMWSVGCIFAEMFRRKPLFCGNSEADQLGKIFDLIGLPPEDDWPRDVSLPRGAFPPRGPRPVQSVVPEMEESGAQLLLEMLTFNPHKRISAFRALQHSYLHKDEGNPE
Chain of UniProt O94768 (whole entry, looked up): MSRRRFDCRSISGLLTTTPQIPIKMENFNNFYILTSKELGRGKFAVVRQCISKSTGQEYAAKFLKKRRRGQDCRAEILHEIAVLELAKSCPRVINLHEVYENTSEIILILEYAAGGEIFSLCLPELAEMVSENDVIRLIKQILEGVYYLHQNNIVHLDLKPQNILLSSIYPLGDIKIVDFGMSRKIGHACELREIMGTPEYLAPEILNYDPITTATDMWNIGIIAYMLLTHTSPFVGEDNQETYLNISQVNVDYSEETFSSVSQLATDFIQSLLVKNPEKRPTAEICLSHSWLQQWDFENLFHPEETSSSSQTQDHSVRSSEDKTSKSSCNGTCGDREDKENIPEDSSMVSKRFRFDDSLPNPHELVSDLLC

Block 1
Target: Tyrosine-protein kinase JAK2 (JAK2, Homo sapiens, UniProt O60674)
Chain of UniProt O60674 (whole entry, looked up): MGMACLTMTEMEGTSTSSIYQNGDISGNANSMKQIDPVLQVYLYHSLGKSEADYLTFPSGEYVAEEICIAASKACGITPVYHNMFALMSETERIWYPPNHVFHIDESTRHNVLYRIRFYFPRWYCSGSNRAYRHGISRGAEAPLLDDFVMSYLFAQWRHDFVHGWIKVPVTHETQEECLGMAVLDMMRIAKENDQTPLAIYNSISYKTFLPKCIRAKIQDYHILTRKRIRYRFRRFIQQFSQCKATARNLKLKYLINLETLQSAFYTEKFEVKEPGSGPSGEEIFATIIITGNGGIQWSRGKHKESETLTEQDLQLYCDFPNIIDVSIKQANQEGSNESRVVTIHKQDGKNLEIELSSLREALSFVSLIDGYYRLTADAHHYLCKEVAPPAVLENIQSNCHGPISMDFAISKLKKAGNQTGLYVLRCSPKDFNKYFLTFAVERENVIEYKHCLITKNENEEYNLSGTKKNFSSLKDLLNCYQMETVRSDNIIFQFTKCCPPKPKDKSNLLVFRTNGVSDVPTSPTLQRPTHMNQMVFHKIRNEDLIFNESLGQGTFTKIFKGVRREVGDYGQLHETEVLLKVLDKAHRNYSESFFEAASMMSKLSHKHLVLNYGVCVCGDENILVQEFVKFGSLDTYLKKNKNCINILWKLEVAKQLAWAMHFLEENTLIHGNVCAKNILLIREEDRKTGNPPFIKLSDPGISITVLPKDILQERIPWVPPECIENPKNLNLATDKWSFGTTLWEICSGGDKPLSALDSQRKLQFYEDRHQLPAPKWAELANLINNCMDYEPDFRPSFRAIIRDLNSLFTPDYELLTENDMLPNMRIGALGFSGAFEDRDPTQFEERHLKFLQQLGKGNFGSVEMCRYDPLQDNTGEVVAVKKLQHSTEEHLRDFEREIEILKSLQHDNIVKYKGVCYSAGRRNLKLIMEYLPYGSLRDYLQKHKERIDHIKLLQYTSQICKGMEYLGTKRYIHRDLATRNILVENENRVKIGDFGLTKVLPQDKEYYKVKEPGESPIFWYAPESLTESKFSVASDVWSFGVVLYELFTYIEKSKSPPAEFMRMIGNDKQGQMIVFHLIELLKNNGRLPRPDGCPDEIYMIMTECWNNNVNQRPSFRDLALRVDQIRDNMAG
Read-out: enzyme activity
Action: inhibitor
Tested at: 0.5 µM
Baseline: control
Measurement: remaining activity
Oc1ccc(Nc2nc(-c3ccc(Cl)cc3)cs2)cc1: 101%
Cc1ccc(NC2=CC(=O)c3sc(C)nc3C2=O)cc1: 99.1%
CCc1[nH]c(-c2ccc(OC)cc2)nc1-c1ccncc1: 96.7%
O=S(=O)(NCCNC/C=C/c1ccc(Br)cc1)c1cccc2cnccc12: 109%
COc1cc(Nc2c(C#N)cnc3cc(OCCCN4CCN(C)CC4)c(OC)cc23)c(Cl)cc1Cl: 97.4%
Fc1ccc(-c2nc3n(c2-c2ccncc2)CCS3)cc1: 93.6%
CCCC(=O)Oc1ccc2[nH]c(C(=O)c3cc4ccccc4[nH]3)cc2c1: 106%
Cc1cc(Nc2nc(-c3ccccc3)nc3ccccc23)n[nH]1: 52.6%
O=C1NC(=O)C(c2c[nH]c3ccccc23)=C1c1c[nH]c2ccccc12: 100%
CC(C)(C)n1nc(Cc2cccc3ccccc23)c2c(N)ncnc21: 94.3%
Cc1cncc2cccc(S(=O)(=O)N3CCCN(C(=O)CN)C[C@@H]3C)c12: 93.9%
CC[n+]1c(/C=C/N(C)c2ccccc2)n(-c2ccccc2)c2ccc(-c3nc4ccccc4s3)cc21: 98.8%
CC#CC(=O)Nc1cc2c(Nc3ccc(F)c(Cl)c3)ncnc2cn1: 97.4%
Nc1nccc(-c2c(-c3ccc(F)cc3)ncn2C2CCNCC2)n1: 99.6%
N#CC(=C(N)Sc1ccc(N)cc1)c1ccccc1C(F)(F)F: 98.7%
CC(=O)c1ccc(N2CCOCC2)cc1O: 93.6%

Block 2
Host: mouse
Sample: microsomes or S9
Tested at: 2 µM
Time: 0.5 h
Measurement: remaining compound
CCOC(=O)N1CCN(CC(O)COc2ccc(C(C)C)c(C)c2)CC1 (stereo not drawn): 5.96%
CC/C(=C(\c1ccccc1)c1ccc(OCCN(C)C)cc1)c1ccccc1: 10.6%
Cc1nc2c3ccccc3nn2c(C)c1CC(=O)NCCc1c[nH]cn1: > 100%
Cc1nn(C2CCS(=O)(=O)C2)c2c1C(C(C)C)CC(=O)N2 (stereo not drawn): 84.1%
CN(C)CCN(Cc1ccccc1)C(=O)C(C(=O)c1ccc(F)cc1)n1ccccc1=O (stereo not drawn): 14.9%
CCOc1ccc(-n2nc3ccc(N)cc3n2)cc1: 0.851%
Cc1n[nH]c(CC(=O)N2C[C@@H](C)[C@](O)(C(C)C)C2)n1: 88.2%
Cc1sc2[nH]c(=O)n3nc(-c4ccncc4)nc3c2c1C: 19.7%
COc1cc(-c2nn([C@H]3CC[C@H](N4CCN(C(C)=O)CC4)CC3)c3ncnc(N)c23)ccc1NC(=O)c1cc2ccccc2n1C: 73.8%
Cc1ccc2c(C)c(C(=O)Nc3ccc4c(c3)NC(=O)C(C)O4)oc2c1 (stereo not drawn): 90.4%
CN(C)CCNC(=O)C1c2ccccc2Oc2ccccc21: 20.4%
CC(C)OCCCNCc1ccccc1OCc1ccc(Cl)cc1Cl: 18.8%

Block 3
Organism: Sarcocystis neurona
Read-out: parasite growth
Tested at: 10 µM
Setting: secondary screen
Measurement: inhibition
Cc1c2oc3c(C)ccc(C(=O)N[C@@H]4C(=O)N[C@H](C(C)C)C(=O)N5CCC[C@H]5C(=O)N(C)CC(=O)N(C)[C@@H](C(C)C)C(=O)O[C@@H]4C)c3nc-2c(C(=O)N[C@@H]2C(=O)N[C@H](C(C)C)C(=O)N3CCC[C@H]3C(=O)N(C)CC(=O)N(C)[C@@H](C(C)C)C(=O)O[C@@H]2C)c(N)c1=O: -12.6%
C[C@H]1O[C@@H](O[C@H]2[C@@H](O)C[C@H](O[C@H]3[C@@H](O)C[C@H](O[C@H]4CC[C@@]5(C)[C@H](CC[C@@H]6[C@@H]5C[C@@H](O)[C@]5(C)[C@@H](C7=CC(=O)OC7)CC[C@]65O)C4)O[C@@H]3C)O[C@@H]2C)C[C@H](O)[C@@H]1O: 35.2%
CCCCc1oc2ccccc2c1C(=O)c1cc(I)c(OCCN(CC)CC)c(I)c1: -9%
CCCC(CCC)C(=O)O: -16.3%
OC[C@H]1O[C@@H](n2cnc3c(NC4CCCC4)nc(Cl)nc32)[C@H](O)[C@@H]1O: -38.4%
CC(C)NCC(O)COc1cccc2[nH]ccc12 (stereo not drawn): -32.1%
NC(=O)N1c2ccccc2C=Cc2ccccc21: -39.7%
CCOC(=O)[C@H](CCc1ccccc1)N[C@@H](C)C(=O)N1Cc2ccccc2C[C@H]1C(=O)O: -36.3%
COc1ccc(CC(C)NCC(O)c2ccc(O)c(NC=O)c2)cc1.COc1ccc(CC(C)NCC(O)c2ccc(O)c(NC=O)c2)cc1.O.O.O=C(O)/C=C/C(=O)O (stereo not drawn): -38.6%
C[C@H]1C[C@@H]2[C@H]([C@@H](O)C[C@@]3(C)[C@H]2CC[C@]3(O)C(=O)CO)[C@@]2(C)C=CC(=O)C=C12: -26.4%

Block 4
SMILES: Cc1c[nH]c2nccc(Oc3c(F)cc(Nc4cc(Cl)nc(N)n4)cc3F)c12
Tested at: 0.1 µM
Measurement: remaining binding
Tyrosine-protein kinase ABL1, phosphorylated (ABL1, Homo sapiens, UniProt P00519, F317I); binding: 55%
Fibroblast growth factor receptor 2 (FGFR2, Homo sapiens, UniProt P21802); cell-free assay, competition with immobilised ligand: 100%
Mitogen-activated protein kinase 7 (MAPK7, Homo sapiens, UniProt Q13164); cell-free assay, competition with immobilised ligand: 82%
Serine/threonine-protein kinase MARK2 (MARK2, Homo sapiens, UniProt Q7KZI7); cell-free assay, competition with immobilised ligand: 100%
Mitogen-activated protein kinase 1 (MAPK1, Homo sapiens, UniProt P28482); cell-free assay, competition with immobilised ligand: 99%
Casein kinase I isoform gamma-2 (CSNK1G2, Homo sapiens, UniProt P78368); cell-free assay, competition with immobilised ligand: 94%
Cyclin-dependent kinase 9 (CDK9, Homo sapiens, UniProt P50750); cell-free assay, competition with immobilised ligand: 78%
Homeodomain-interacting protein kinase 3 (HIPK3, Homo sapiens, UniProt Q9H422); cell-free assay, competition with immobilised ligand: 92%
Dual specificity mitogen-activated protein kinase kinase 1 (MAP2K1, Homo sapiens, UniProt Q02750); cell-free assay, competition with immobilised ligand: 81%
Cyclin-dependent kinase 4, with cyclin D1 (CDK4, Homo sapiens, UniProt P11802); cell-free assay, competition with immobilised ligand: 100%
Calcium/calmodulin-dependent protein kinase type II subunit gamma (CAMK2G, Homo sapiens, UniProt Q13555); cell-free assay, competition with immobilised ligand: 96%
Platelet-derived growth factor receptor beta (PDGFRB, Homo sapiens, UniProt P09619); cell-free assay, competition with immobilised ligand: 83%
Macrophage colony-stimulating factor 1 receptor (CSF1R, Homo sapiens, UniProt P07333); cell-free assay, competition with immobilised ligand: 100%
Interferon-induced, double-stranded RNA-activated protein kinase (EIF2AK2, Homo sapiens, UniProt P19525); cell-free assay, competition with immobilised ligand: 100%
Tyrosine-protein kinase ABL1, non-phosphorylated (ABL1, Homo sapiens, UniProt P00519, H396P); cell-free assay, competition with immobilised ligand: 82%
Serine/threonine-protein kinase 17B (STK17B, Homo sapiens, UniProt O94768); cell-free assay, competition with immobilised ligand: 100%
Serine/threonine-protein kinase mTOR (MTOR, Homo sapiens, UniProt P42345); cell-free assay, competition with immobilised ligand: 85%
Serine/threonine-protein kinase OSR1 (OXSR1, Homo sapiens, UniProt O95747); cell-free assay, competition with immobilised ligand: 92%
Serine/threonine-protein kinase D1 (PRKD1, Homo sapiens, UniProt Q15139); cell-free assay, competition with immobilised ligand: 55%
Phosphatidylinositol 5-phosphate 4-kinase type-2 gamma (PIP4K2C, Homo sapiens, UniProt Q8TBX8); cell-free assay, competition with immobilised ligand: 100%
Phosphatidylinositol 4,5-bisphosphate 3-kinase catalytic subunit alpha isoform (PIK3CA, Homo sapiens, UniProt P42336, H1047L); cell-free assay, competition with immobilised ligand: 81%
Receptor-type tyrosine-protein kinase FLT3 (FLT3, Homo sapiens, UniProt P36888, ITD); cell-free assay, competition with immobilised ligand: 97%
Cyclin-dependent kinase 8 (CDK8, Homo sapiens, UniProt P49336); cell-free assay, competition with immobilised ligand: 69%
Tyrosine-protein kinase ABL1, non-phosphorylated (ABL1, Homo sapiens, UniProt P00519, T315I); cell-free assay, competition with immobilised ligand: 80%
Atypical kinase COQ8A, mitochondrial (COQ8A, Homo sapiens, UniProt Q8NI60); cell-free assay, competition with immobilised ligand: 100%
